Experimental data of several laboratories.
Compare with care: the assays were run in different laboratories. ± gives the spread as reported.
ALB: Albumin (ALB, Bos taurus, UniProt P02769)
Chain of UniProt P02769 (whole entry, looked up): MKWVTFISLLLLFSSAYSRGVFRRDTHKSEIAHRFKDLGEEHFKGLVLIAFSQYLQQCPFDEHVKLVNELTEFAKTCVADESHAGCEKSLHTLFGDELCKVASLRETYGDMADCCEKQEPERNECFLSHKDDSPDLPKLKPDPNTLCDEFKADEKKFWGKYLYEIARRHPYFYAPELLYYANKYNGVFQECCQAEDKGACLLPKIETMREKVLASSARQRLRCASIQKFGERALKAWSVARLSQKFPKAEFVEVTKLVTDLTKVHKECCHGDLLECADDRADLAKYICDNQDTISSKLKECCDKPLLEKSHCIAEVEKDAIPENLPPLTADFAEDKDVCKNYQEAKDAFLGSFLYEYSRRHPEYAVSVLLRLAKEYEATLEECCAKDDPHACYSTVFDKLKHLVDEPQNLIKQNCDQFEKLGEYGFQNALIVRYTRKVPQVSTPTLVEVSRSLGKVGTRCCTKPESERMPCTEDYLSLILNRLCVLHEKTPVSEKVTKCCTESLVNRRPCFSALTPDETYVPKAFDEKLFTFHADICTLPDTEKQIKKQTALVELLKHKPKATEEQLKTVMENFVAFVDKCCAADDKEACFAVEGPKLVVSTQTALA
CYP1A1: Cytochrome P450 1A1 (CYP1A1, Homo sapiens, UniProt P04798)
Chain of UniProt P04798 (whole entry, looked up): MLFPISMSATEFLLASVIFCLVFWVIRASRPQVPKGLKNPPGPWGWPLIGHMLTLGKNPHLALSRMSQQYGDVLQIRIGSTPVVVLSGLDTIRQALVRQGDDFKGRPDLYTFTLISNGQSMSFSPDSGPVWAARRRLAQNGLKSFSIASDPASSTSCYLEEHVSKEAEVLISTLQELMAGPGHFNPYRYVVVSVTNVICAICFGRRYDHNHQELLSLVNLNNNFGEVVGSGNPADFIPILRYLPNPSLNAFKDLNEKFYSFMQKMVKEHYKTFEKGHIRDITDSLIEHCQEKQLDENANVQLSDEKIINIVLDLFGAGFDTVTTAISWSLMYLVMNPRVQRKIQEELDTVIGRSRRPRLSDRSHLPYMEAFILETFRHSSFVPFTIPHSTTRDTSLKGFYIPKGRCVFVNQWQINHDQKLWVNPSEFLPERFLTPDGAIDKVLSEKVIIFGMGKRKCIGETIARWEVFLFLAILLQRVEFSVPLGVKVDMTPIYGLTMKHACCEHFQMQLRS
CYP11A1: Cholesterol side-chain cleavage enzyme, mitochondrial (CYP11A1, Homo sapiens, UniProt P05108)
Chain of UniProt P05108 (whole entry, looked up): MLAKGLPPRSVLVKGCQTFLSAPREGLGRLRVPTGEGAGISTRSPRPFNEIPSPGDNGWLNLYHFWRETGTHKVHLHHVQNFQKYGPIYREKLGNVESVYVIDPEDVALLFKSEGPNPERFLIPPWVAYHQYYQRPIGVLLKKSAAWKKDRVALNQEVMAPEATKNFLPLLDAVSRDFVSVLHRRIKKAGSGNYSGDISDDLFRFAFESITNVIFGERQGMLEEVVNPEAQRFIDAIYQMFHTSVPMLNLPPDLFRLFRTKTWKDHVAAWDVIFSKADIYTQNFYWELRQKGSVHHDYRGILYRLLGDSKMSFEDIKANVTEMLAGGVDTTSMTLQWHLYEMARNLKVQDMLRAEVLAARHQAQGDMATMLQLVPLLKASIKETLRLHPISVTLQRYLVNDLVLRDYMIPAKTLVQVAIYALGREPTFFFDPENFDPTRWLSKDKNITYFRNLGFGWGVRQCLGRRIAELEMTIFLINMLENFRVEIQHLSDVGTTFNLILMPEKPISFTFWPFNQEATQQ
Chain of UniProt P08684 (whole entry, looked up): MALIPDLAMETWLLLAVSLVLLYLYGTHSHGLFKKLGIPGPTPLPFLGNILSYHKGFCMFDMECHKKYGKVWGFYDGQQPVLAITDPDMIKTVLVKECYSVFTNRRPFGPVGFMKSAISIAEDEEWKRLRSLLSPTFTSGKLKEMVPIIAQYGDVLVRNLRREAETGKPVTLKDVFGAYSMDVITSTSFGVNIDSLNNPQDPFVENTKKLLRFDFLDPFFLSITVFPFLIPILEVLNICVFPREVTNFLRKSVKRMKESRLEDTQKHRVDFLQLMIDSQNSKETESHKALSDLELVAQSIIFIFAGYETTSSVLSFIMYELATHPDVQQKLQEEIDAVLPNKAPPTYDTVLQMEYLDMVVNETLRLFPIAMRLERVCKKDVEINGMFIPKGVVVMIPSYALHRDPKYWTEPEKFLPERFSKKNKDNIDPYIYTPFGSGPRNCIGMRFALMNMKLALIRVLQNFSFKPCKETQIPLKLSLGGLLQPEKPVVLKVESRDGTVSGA
Chain of UniProt P51589 (whole entry, looked up): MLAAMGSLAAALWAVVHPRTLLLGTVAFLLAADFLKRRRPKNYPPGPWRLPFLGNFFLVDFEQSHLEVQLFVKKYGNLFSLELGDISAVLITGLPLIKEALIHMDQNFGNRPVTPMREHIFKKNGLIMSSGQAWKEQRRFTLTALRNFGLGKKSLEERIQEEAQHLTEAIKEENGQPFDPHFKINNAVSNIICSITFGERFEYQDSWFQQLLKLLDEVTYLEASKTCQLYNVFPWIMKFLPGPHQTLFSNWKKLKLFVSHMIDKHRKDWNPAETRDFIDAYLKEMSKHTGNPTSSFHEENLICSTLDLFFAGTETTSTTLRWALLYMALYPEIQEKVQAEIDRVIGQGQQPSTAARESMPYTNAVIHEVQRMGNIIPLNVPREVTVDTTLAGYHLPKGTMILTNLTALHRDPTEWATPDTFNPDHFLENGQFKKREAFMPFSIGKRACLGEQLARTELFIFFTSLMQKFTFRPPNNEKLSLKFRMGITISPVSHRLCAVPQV
Chain of UniProt P16257 (whole entry, looked up): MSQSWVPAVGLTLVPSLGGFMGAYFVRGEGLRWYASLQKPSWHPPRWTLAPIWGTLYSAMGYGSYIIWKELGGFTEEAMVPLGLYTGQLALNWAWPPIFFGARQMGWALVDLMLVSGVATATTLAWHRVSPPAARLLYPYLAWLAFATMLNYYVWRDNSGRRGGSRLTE
Chain of UniProt Q01740 (whole entry, looked up): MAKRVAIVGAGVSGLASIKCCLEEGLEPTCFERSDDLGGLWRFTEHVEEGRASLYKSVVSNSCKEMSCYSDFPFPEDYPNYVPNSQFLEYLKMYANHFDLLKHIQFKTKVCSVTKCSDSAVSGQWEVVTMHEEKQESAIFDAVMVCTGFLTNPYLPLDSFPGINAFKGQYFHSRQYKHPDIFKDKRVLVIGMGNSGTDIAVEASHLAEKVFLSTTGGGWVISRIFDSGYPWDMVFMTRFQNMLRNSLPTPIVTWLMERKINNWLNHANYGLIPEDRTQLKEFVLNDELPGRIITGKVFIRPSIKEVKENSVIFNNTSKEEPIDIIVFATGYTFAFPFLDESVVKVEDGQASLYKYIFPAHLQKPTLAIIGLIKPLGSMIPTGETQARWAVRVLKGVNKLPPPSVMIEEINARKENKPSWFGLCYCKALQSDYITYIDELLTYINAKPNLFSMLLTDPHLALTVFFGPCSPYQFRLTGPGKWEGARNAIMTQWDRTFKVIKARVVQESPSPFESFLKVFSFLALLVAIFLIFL
Chain of UniProt P50225 (whole entry, looked up): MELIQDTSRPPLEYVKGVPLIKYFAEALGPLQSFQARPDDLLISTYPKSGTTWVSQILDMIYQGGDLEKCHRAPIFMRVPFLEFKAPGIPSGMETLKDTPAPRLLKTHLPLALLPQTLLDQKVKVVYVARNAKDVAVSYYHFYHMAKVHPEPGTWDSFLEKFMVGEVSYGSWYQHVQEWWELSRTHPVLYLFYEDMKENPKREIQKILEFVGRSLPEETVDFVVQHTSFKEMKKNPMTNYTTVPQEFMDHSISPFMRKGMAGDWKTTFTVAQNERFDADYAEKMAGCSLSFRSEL

`CCC(=O)N(C)c1ccc(Cl)c(Cl)c1` gave a remaining binding of at most 25% (ALB; BSA binding, fluorescence quenching; bovine serum albumin solution; 15 to 150 µM, 1 h, added: BSA 7.5 µM; relative to: diclofenac).
`[64Cu+2].c1ccc(CNCc2ccc(CN3CCCN4CCNCCCN(CC4)CC3)cc2)nc1` gave a tissue uptake of 2.55 ± 0.58 %ID/g (CXCR4; NOD/SCID mouse, U87 and U87-stb-CXCR4 xenografts, bladder; iv, 30 min, ex vivo).
With `COc1c(C(=O)/C=C/c2ccccc2)c(O)c(OC)c2occc12` the inhibition was 92% (CYP1A1; yeast microsomes; 10 µM).
With `C[C@@H]1COCCN1c1nc(-c2ccc(N)nc2)nc2c1C[C@@H]1COCCN21` the remaining compound was 44% (CYP1A1; substrate; recombinant enzyme Supersomes; 1 µM, 60 min).
The metabolic rate of `Cc1cccc(C)c1OCC(N)c1ccccc1` (stereo not drawn) is reported as 0.73 ± 0.01 nmol/min/mg protein (Flavin-containing monooxygenase 1 (Homo sapiens, UniProt Q01740); substrate; purified enzyme; 88 µM, 30 min, pH 8.4, 37 °C).
With `O=C(O)[C@@H]1C[C@@H](O)CN1C(=O)[C@@H]1CCCN1` the −ΔG was 24.4 kJ/mol (iron(III) ion; complex formation, from log β; aqueous 0.15 M NaCl; 40 °C, MAH−2 complex species).
`COc1ccc(S(=O)(=O)NCc2c[nH]nc2-c2cccs2)cc1` has a protein binding of 44% (Albumin, lipid-rich (ALB, Bos taurus, UniProt P02769); bovine).
`CCc1cc(C)n2nc(-c3ccc(OCC[18F])cc3)c(CC(=O)N(CC)CC)c2n1` — result for “total distribution volume”: 44.5 ± 8.27 mL/cm3 (Tspo (Rattus norvegicus, UniProt P16257); Logan plot analysis; rat C6 glioma model, tumor; dose not given, 60 min dynamic PET).
`COc1ccc2cc(NC(=O)c3cc(-c4ccncc4)nc4ccccc34)ccc2c1` has a kcat/Km of 17200 M⁻¹ s⁻¹ (Cytochrome P450 3A4 (CYP3A4, Homo sapiens, UniProt P08684); substrate, item: metabolite M2; baculosomes).
`O=C(O)C(O)Cc1ccc(O)c(O)c1` (stereo not drawn) gave a relative activity of 30% (SULT1A1 (Homo sapiens, UniProt P50225); sulfation, substrate, cDNA-expressed enzyme; 500 µM, 120 min; relative to: SULT1A3).
The remaining compound of `O=C(O[C@@H]1Cc2c(O)cc(O)cc2O[C@@H]1c1cc(O)c(O)c(O)c1)c1cc(O)c(O)c(O)c1` is reported as 65.8% (ALB; compound stability, HPLC; 25 µM, 40 min, pH 7.4, 37 °C, added: albumin 30 µM).
`COC(=O)c1ccc(/C=N/NS(=O)(=O)c2ccc(OC)c(OC)c2)cc1`: “inhibition of metabolism” about 100% (carboxylesterase rat; substrate; Wistar rat liver microsomes; 10 µM, 20 min, 37 °C, added: bis(p-nitrophenyl)phosphate 100 µM).
For `O=Cc1ccc(C2CCCCO2)o1` (stereo not drawn), CYP inhibition read “no inhibition” (human CYP1A2, 2B6, 2C8, 2C9, 2C19, 2D6, 3A4; human liver microsomes; 0.1 to 100 µM).
`[2H]c1c(NS(C)(=O)=O)c([2H])c2c(C(=O)c3ccc(OCCCN(CCCC)CCCC)cc3)c(CCCC)oc2c1[2H]` has a half-life of 5.32 min (Cytochrome P450 2J2 (CYP2J2, Homo sapiens, UniProt P51589); metabolic stability; recombinant enzyme; 1 µM, enzyme 20 pmol/mL).
`COc1cc2oc(-c3ccc(C(F)(F)F)cc3)cc(=O)c2c(O)c1O`: “log conditional stability constant” 5.3 (Fe(III); spectrophotometric titration; methanol/water 80/20 w/w; 25.0 °C, ionic strength 0.1 M, pH 2.0).
For `C=C1CCC(O)CC1=CC=C1CCCC2(C)C1CCC2C(C)(O)c1ccccc1` (stereo not drawn), “number of products” read 4 (CYP11A1; substrate; 50 µM, 2 h, 0.45% cyclodextrin, 1 µM enzyme).
Under “adduct stability time”, `CN(C)C(=S)N(C)N=Cc1ccccc1SSc1ccccc1C=NN(C)C(=S)N(C)C` is recorded as at least 8 h (ALB; optical absorption spectra; added: BSA 40 µM).
The substrate conversion of `C=C1CCC(O)CC1=CC=C1CCCC2(C)C1CCC2C(C)(C)O` (stereo not drawn) is reported as 0% (CYP11A1; substrate; 50 µM, 2 h, 0.45% cyclodextrin, 1 µM enzyme).
`COc1cc2oc(-c3ccc(OC(F)(F)F)cc3)cc(=O)c2c(O)c1O`: “log conditional stability constant” 5.8 (Fe(III); spectrophotometric titration; methanol/water 80/20 w/w; 25.0 °C, ionic strength 0.1 M, pH 2.0).
For `C=C1CCC(O)CC1=CC=C1CCCC2(C)C1CCC2C(C)(O)CCCCCC` (stereo not drawn), the substrate conversion was 91% (CYP11A1; substrate; 50 µM, 2 h, 0.45% cyclodextrin, 1 µM enzyme).
`[64Cu+2].c1cnc(CNCc2ccc(CN3CCCN4CCNCCCN(CC4)CC3)cc2)nc1` gave a tissue uptake of 22.9 ± 1.76 %ID/g (CXCR4; NOD/SCID mouse, U87 and U87-stb-CXCR4 xenografts, kidney; iv, 90 min, no blocking dose, ex vivo).

For quick reference, copied from above:
The metabolic rate of `Cc1cccc(C)c1OCC(N)c1ccccc1` (stereo not drawn) is reported as 0.73 ± 0.01 nmol/min/mg protein (Flavin-containing monooxygenase 1 (Homo sapiens, UniProt Q01740); substrate; purified enzyme; 88 µM, 30 min, pH 8.4, 37 °C).
For `O=Cc1ccc(C2CCCCO2)o1` (stereo not drawn), CYP inhibition read “no inhibition” (human CYP1A2, 2B6, 2C8, 2C9, 2C19, 2D6, 3A4; human liver microsomes; 0.1 to 100 µM).
`[64Cu+2].c1ccc(CNCc2ccc(CN3CCCN4CCNCCCN(CC4)CC3)cc2)nc1` gave a tissue uptake of 2.55 ± 0.58 %ID/g (CXCR4; NOD/SCID mouse, U87 and U87-stb-CXCR4 xenografts, bladder; iv, 30 min, ex vivo).
